Published values collected from several papers.
Lines come from different studies, so protocols differ.
Organism: Escherichia coli

For `CC(C)Oc1c(NC(=O)c2ccc(NC(=O)C(CC(N)=O)NC(=O)c3ccc(NC(=O)c4ccc(C#N)cc4)cc3)cc2)ccc(C(=O)Nc2ccc(C(=O)O)cc2)c1O` (centres unmarked), the MIC was 0.025 µg/mL (BW25113 WT).
The MIC of `CC1(C)[C@H](NC(=O)/C(=N\OCC(=O)N2CCC(C(=O)O)CC2)c2csc(N)n2)C(=O)N1OS(=O)(=O)O` is reported as 1 µg/mL (agar dilution; 16-1, ESBL-producing).
`COc1c(NC(=O)c2ccc(NC(=O)[C@H](Cc3c[nH]nn3)NC(=O)c3ccc(NC(=O)/C(C)=C/c4ccc(O)cc4)cc3)cc2)ccc(C(=O)Nc2ccc(C(=O)O)c(O)c2)c1O` has an MIC of 0.5 µg/mL (broth microdilution; ciprofloxacin-resistant).
The MIC of `C=CCO/N=C(\C(=O)N[C@@H]1C(=O)N(S(=O)(=O)O)[C@H]1C)c1csc(N)n1` is reported as 0.25 µg/mL (microbial growth, agar dilution; ATCC25).
`COc1ccc2cc3[n+](cc2c1OC)CCc1cc2c(cc1-3)OCO2.[Cl][Fe-]([Cl])([Cl])[Cl]` gave an MIC of 800 µM (24 h, 37 °C).
The MIC of `COc1cc(C(=O)Nc2ccc(C(=O)O)c(O)c2OC)ccc1NC(=O)c1ccc(NC(=O)[C@H](Cc2c[nH]nn2)NC(=O)c2ccc(NC(=O)/C(C)=C/c3ccc(O)cc3)cc2)cc1` is reported as 0.5 µg/mL (broth microdilution; ciprofloxacin-resistant).
`CC[C@H]1OC(=O)[C@H](C)[C@@H](OC(=O)Cc2ccc3c(c2)OCO3)[C@H](C)[C@@H](O[C@@H]2O[C@H](C)C[C@H](N(C)C)[C@H]2O)[C@](C)(OC)C[C@@H](C)C(=O)[C@H](C)[C@@H](O)[C@]1(C)O` has an MIC of 16 µg/mL (lpxC).
`COc1nc(C(=O)Nc2ccc(C(=O)O)c(O)c2OC)ccc1NC(=O)c1ccc(NC(=O)[C@H](Cc2c[nH]nn2)NC(=O)c2ccc(NC(=O)/C(C)=C/c3ccc(O)cc3)cc2)cc1` has an MIC of 0.25 µg/mL (broth microdilution; ciprofloxacin-resistant).
For `CO[C@H]1O[C@H](COC(c2ccccc2)(c2ccccc2)c2ccccc2)[C@@H](OS(=O)(=O)c2ccccc2)[C@H](OS(=O)(=O)c2ccccc2)[C@H]1OS(=O)(=O)c1ccccc1`, the MIC was 1.5 µg/mL (microbial growth, broth dilution).
`CC(C)C[C@@H]1NC(=O)[C@@H](CC(C)C)NC(=O)[C@H](CCN)NC(=O)[C@@H](NC(=O)[C@H](CCN)NC(=O)[C@@H](NC(=O)CCCCN=[N+]=[N-])[C@@H](C)O)CCNC(=O)[C@H]([C@@H](C)O)NC(=O)[C@H](CCN)NC(=O)[C@H](CCN)NC1=O` gave an MIC of 8 µg/mL (broth microdilution; ATCC 35218, cation-adjusted Mueller-Hinton broth; 18 to 20 h, 37 °C, 0.002% polysorbate 80).
The MIC of `C#CCNC(=O)C(C)(C)O/N=C(\C(=O)N[C@@H]1C(=O)N(S(=O)(=O)O)[C@H]1C)c1csc(N)n1` is reported as 1 µg/mL (agar dilution; 16-1 ESBL).
The MIC of `CC[C@H]1OC(=O)[C@H](C)[C@@H](OC(=O)Cc2c(F)cccc2F)[C@H](C)[C@@H](O[C@@H]2O[C@H](C)C[C@H](N(C)C)[C@H]2O)[C@](C)(OC)C[C@@H](C)C(=O)[C@H](C)[C@@H](O)[C@]1(C)O` is reported as 32 µg/mL (lpxC).
With `COc1ccc2ccc(O)c(/C=N/[C@H]3CCCC[C@H]3/N=C/c3c(O)cccc3OC)c2c1` the MIC was greater than 40 µM (microbial growth, broth dilution; clinical isolate).
With `COc1cc(C(=O)O)ccc1NC(=O)c1ccc(NC(=O)c2ccc(NC(=O)[C@H](Cc3c[nH]nn3)NC(=O)c3ccc(NC(=O)/C(C)=C/c4ccc(O)cc4)cc3)cc2)c(OC)c1O` the MIC was 0.125 µg/mL (broth microdilution; BW25113).
`CN(Cc1nn(C)c2nc(N)[nH]c(=O)c2c1=O)c1nnn[nH]1` gave an MIC of greater than 100 µg/mL (microbial growth, broth dilution; BW25113; 18 h).
For `CCOc1c(NC(=O)c2ccc(NC(=O)c3ccc(NC(=O)[C@H](Cc4c[nH]nn4)NC(=O)c4ccc(NC(=O)/C(C)=C/c5ccc(O)cc5)cc4)cc3)c(OCC)c2O)ccc(C(=O)O)c1O`, the MIC was 0.016 µg/mL (broth microdilution; BW25113).
`CCCCCCCCCCn1cc[n+](CCCCCCCCCCOc2cc(OCCCCCCCCCC[n+]3ccn(CCCCCCCCCC)c3)cc(OCCCCCCCCCC[n+]3ccn(CCCCCCCCCC)c3)c2)c1.[Br-].[Br-].[Br-]` has an MIC of 32 µM (MC4100).
For `CCCCCCCC(=O)N[C@@H](CCN)C(=O)N[C@H](C(=O)N[C@@H](CCN)C(=O)N[C@H]1CCNC(=O)[C@H]([C@@H](C)O)NC(=O)[C@H](CCN)NC(=O)[C@H](CCN)NC(=O)[C@H](CC(C)C)NC(=O)[C@@H](Cc2ccccc2)NC(=O)[C@H](CCN)NC1=O)[C@@H](C)O`, the MIC was 0.125 to 0.25 µg/mL (broth microdilution; ATCC 25922).
The MIC of `CC[C@H]1OC(=O)[C@H](C)[C@@H](OC(=O)Cc2c(F)cc([N+](=O)[O-])cc2F)[C@H](C)[C@@H](O[C@@H]2O[C@H](C)C[C@H](N(C)C)[C@H]2O)[C@](C)(OC)C[C@@H](C)C(=O)[C@H](C)[C@@H](O)[C@]1(C)O` is reported as 32 µg/mL (lpxC).
`CC[C@H](C)[C@H](NC(=O)[C@@H](CCCNC(=N)N)NC(=O)[C@H](CCCNC(=N)N)NC(=O)[C@@H]1CCCN1C(=O)[C@@H]1CCCN1C(=O)[C@H](CCCNC(=N)N)NC(=O)[C@@H]1CCCN1C(=O)[C@H](CCCNC(=N)N)NC(=O)[C@@H]1CCCN1C(=O)[C@H](CC(C)C)NC(=O)[C@H](Cc1ccc(O)cc1)NC(=O)[C@@H]1CCCN1C(=O)[C@@H]1CCCN1C(=O)[C@H](CCCNC(=N)N)NC(=O)[C@H](CC(=O)O)NC(=O)[C@@H](N)C(C)C)C(=O)N[C@@H](Cc1ccc(O)cc1)C(=O)N[C@@H](CC(N)=O)C(=O)N[C@H](CCCNC(=N)N)C(N)=O` gave an MIC of 8 µg/mL (broth microdilution; ATCC 25922; 18 h, 37 °C, 25% MHB2).
`COc1c(C)c(OCc2ccccc2)c(C)c(OCc2ccccc2)c1C(=O)/C=C/c1ccccc1` gave an MIC of 5000 µg/mL (microbial growth, broth dilution; ATCC25922).
`C[C@H](CS)C(=O)Nc1cccc(-c2nn[nH]n2)c1` has an MIC of less than 0.125 µg/mL (broth microdilution, refers to: meropenem; DH5α pET28-lacUV5 control; 25 µM, together with: meropenem).
`CC[C@H]1OC(=O)[C@H](C)[C@@H](OC(=O)Cc2ccc(Cl)cc2)[C@H](C)[C@@H](O[C@@H]2O[C@H](C)C[C@H](N(C)C)[C@H]2O)[C@](C)(OC)C[C@@H](C)C(=O)[C@H](C)[C@@H](O)[C@]1(C)O` gave an MIC of 2 µg/mL (tolC).
`N=C(N)NCCC[C@@H]1NC(=O)[C@H](CCCNC(=N)N)NC(=O)[C@@H](C(c2ccccc2)c2ccccc2)NC(=O)[C@H](Cc2c[nH]c3ccccc23)NC(=O)[C@@H](C(c2ccccc2)c2ccccc2)NC(=O)[C@@H](CCCNC(=N)N)NC(=O)[C@@H](CCCNC(=N)N)NC1=O` gave an MIC of 16 µg/mL (ATCC 25922).
With `Cc1n[nH]c2nc(N)[nH]c(=O)c2c1=O` the MIC was 25 µg/mL (microbial growth, broth dilution; BW25113; 18 h).
`COc1cc(C(=O)Nc2ccc(C(=O)O)cc2)ccc1NC(=O)c1ccc(NC(=O)[C@H](Cc2c[nH]nn2)NC(=O)c2ccc(NC(=O)/C(C)=C/c3ccc(O)cc3)cc2)cc1` has an MIC of 32 µg/mL (broth microdilution; ciprofloxacin-sensitive).
With `COc1ccc2ccc(O)c(/C=N/[C@H]3CCCC[C@H]3/N=C/c3ccccc3O)c2c1` the MIC was greater than 40 µM (microbial growth, broth dilution).
`CC[C@H]1OC(=O)[C@H](C)[C@@H](OC(=O)Cc2ccc(C(F)(F)F)cc2)[C@H](C)[C@@H](O[C@@H]2O[C@H](C)C[C@H](N(C)C)[C@H]2O)[C@](C)(OC)C[C@@H](C)C(=O)[C@H](C)[C@@H](O)[C@]1(C)O` gave an MIC of 16 µg/mL (tolC).
`COc1c(NC(=O)c2ccc(NC(=O)c3ccc(NC(=O)[C@H](CC#N)NC(=O)c4ccc(NC(=O)/C(C)=C/c5ccc(O)cc5)cc4)cc3)c(OC)c2O)ccc(C(=O)O)c1O` gave an MIC of 0.125 µg/mL (broth microdilution; ciprofloxacin-resistant).
`CCCC(=O)Oc1c(C)c(OC)c2c(c1C)OC(=O)[C@@H](CC)[C@]2(O)/C=C/c1ccccc1` (racemic) gave an MIC of 5000 µg/mL (microbial growth, broth dilution; ATCC25922).
With `CC[C@H](C)[C@H](NC(=O)[C@@H](CCCNC(=N)N)NC(=O)[C@H](CCCNC(=N)N)NC(=O)[C@@H]1CCCN1C(=O)[C@@H]1CCCN1C(=O)[C@H](CCCCN)NC(=O)[C@@H]1CCCN1C(=O)[C@H](CCCNC(=N)N)NC(=O)[C@@H]1CCCN1C(=O)[C@H](CC(C)C)NC(=O)[C@H](Cc1ccc(O)cc1)NC(=O)[C@@H]1CCCN1C(=O)[C@@H]1CCCN1C(=O)[C@H](CCCCN)NC(=O)[C@H](CC(=O)O)NC(=O)[C@@H](N)C(C)C)C(=O)N[C@@H](Cc1ccc(O)cc1)C(=O)N[C@@H](CC(N)=O)C(=O)N[C@H](CCCNC(=N)N)C(N)=O` the MIC was 8 µg/mL (broth microdilution; BW25113; 18 h, 37 °C, 25% MHB2).
With `CCCCCC[N+](C)(C)CCCCOc1cc(OCCCC[N+](C)(C)CCCCCC)cc(OCCCC[N+](C)(C)CCCCCC)c1.[Br-].[Br-].[Br-]` the MIC was 250 µM (MC4100).
For `CN[C@H](CC(C)C)C(=O)N[C@H]1C(=O)N[C@@H](CC(N)=O)C(=O)N[C@H]2C(=O)N[C@H]3C(=O)N[C@H](C(=O)N[C@H](C(=O)N[C@@H](CCCNC(=N)N)C(N)=O)c4cc(O)cc(O)c4-c4cc3ccc4O)[C@H](O)c3ccc(c(Cl)c3)Oc3cc2cc(c3O[C@@H]2O[C@H](CO)[C@@H](O)[C@H](O)[C@H]2O[C@H]2C[C@](C)(NCc3ccc(OCc4cn(CC(=O)N[C@H](C(=O)N[C@@H](CCN)C(=O)N[C@H]5CCNC(=O)[C@H]([C@@H](C)O)NC(=O)[C@H](CCN)NC(=O)[C@H](CCN)NC(=O)[C@H](CC(C)C)NC(=O)[C@@H](CC(C)C)NC(=O)[C@H](CCN)NC5=O)[C@@H](C)O)nn4)c(OC)c3)[C@H](O)[C@H](C)O2)Oc2ccc(cc2Cl)[C@H]1O`, the MIC was 8 µg/mL (broth microdilution; ATCC 35218, cation-adjusted Mueller-Hinton broth; 18 to 20 h, 37 °C, 0.002% polysorbate 80).
`COc1nc(C(=O)Nc2ccc(C(=O)O)nc2OC)ccc1NC(=O)c1ccc(NC(=O)[C@H](Cc2c[nH]nn2)NC(=O)c2ccc(NC(=O)/C(C)=C/c3ccc(O)cc3)cc2)cc1` gave an MIC of 0.5 µg/mL (broth microdilution; DSM 1116).
`CCCCCCCCCCn1cc[n+](CCCCOc2cc(OCCCC[n+]3ccn(CCCCCCCCCC)c3)cc(OCCCC[n+]3ccn(CCCCCCCCCC)c3)c2)c1.[Br-].[Br-].[Br-]` has an MIC of 1 µM (MC4100).

Repeated from above:
`CCCC(=O)Oc1c(C)c(OC)c2c(c1C)OC(=O)[C@@H](CC)[C@]2(O)/C=C/c1ccccc1` (racemic) gave an MIC of 5000 µg/mL (microbial growth, broth dilution; ATCC25922).
For `CN[C@H](CC(C)C)C(=O)N[C@H]1C(=O)N[C@@H](CC(N)=O)C(=O)N[C@H]2C(=O)N[C@H]3C(=O)N[C@H](C(=O)N[C@H](C(=O)N[C@@H](CCCNC(=N)N)C(N)=O)c4cc(O)cc(O)c4-c4cc3ccc4O)[C@H](O)c3ccc(c(Cl)c3)Oc3cc2cc(c3O[C@@H]2O[C@H](CO)[C@@H](O)[C@H](O)[C@H]2O[C@H]2C[C@](C)(NCc3ccc(OCc4cn(CC(=O)N[C@H](C(=O)N[C@@H](CCN)C(=O)N[C@H]5CCNC(=O)[C@H]([C@@H](C)O)NC(=O)[C@H](CCN)NC(=O)[C@H](CCN)NC(=O)[C@H](CC(C)C)NC(=O)[C@@H](CC(C)C)NC(=O)[C@H](CCN)NC5=O)[C@@H](C)O)nn4)c(OC)c3)[C@H](O)[C@H](C)O2)Oc2ccc(cc2Cl)[C@H]1O`, the MIC was 8 µg/mL (broth microdilution; ATCC 35218, cation-adjusted Mueller-Hinton broth; 18 to 20 h, 37 °C, 0.002% polysorbate 80).
`CN(Cc1nn(C)c2nc(N)[nH]c(=O)c2c1=O)c1nnn[nH]1` gave an MIC of greater than 100 µg/mL (microbial growth, broth dilution; BW25113; 18 h).
